Results pooled from the literature.
Numbered parts are unrelated; each lists some results of a single study. Positions count from the first letter of the parent shown.

Series 1
Target: UBE2M UBC core domain (UniProt P61081)
Sequence of UniProt P61081 (whole entry, looked up): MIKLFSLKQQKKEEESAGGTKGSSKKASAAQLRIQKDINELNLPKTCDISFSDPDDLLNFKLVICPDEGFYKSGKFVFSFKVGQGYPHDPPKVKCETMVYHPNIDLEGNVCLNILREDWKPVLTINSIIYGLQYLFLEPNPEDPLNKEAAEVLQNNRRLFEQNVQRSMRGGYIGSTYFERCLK
Method: yeast two-hybrid
Sample: yeast
Notes: mostly zero background
Reference: not given
Direction: higher = stronger interaction
B1: MDM2 RING domain (UniProt Q00987); chain TQDKEESVESSLPLNAIEPCVICQGRPKNGCIVHGKTGHLMACFTCAKKLKKRNKPCPVCRQPIQMIVLTYFP
B2: NHLRC1 RING domain (UniProt Q6VVB1); chain MREAEISLLECKVCFEKFGHRQQRRPRNLSCGHVVCLACVAALAHPRTLALECPFCRRACRGCDTSD
B3: TRIM32 RING domain (UniProt Q13049); chain NLDALREVLECPICMESFTEEQLRPKLLHCGHTICRQCLEKLLASSINGVRCPFCSKITRITSLTQ
B4: TRIM74 RING domain (UniProt Q86UV6); chain SLLELEDWLQCPICLEVFKESLMLQCGHSYCKGCLVSLSYHLDTKVRCPMCWQVVDGSSSLP
B5: RNF32 RING domain (UniProt Q9H0A6); chain VQALRRETHECSICLAPLSAAGGQRVGAGRRSREMALLSCSHVFHHACLLALEEFSVGDRPPFHACPLCRSCYQKKILEC
B6: TRIM34 RING domain (UniProt Q9BYJ4); chain ILLNVQEEVTCPICLELLTEPLSLDCGHSLCRACITVSNKEAVTSMGGKSSCPVCGISYSFEHLQA
B7: ARIH1 RING domain (UniProt Q9Y4X5); chain NTRSSAQDMPCQICYLNYPNSYFTGLECGHKFCMQCWSEYLTTKIMEEGMGQTISCPAHGCDILVDDNTVM
B8: RNF10 RING domain (UniProt Q8N5U6); chain VRICSHEVPSCPICLYPPTAAKITRCGHIFCWACILHYLSLSEKTWSKCPICYSSVHKKDLKS
B9: SHPRH RING domain (UniProt Q149N8); chain KTSGGVNPEPCPICARQLGKQWAVLTCGHCFCNECISIIIEQYSVGSHRSSIKCAICRQTTSHKEISY
B10: TRIM28 RING domain (UniProt Q13263); chain GAEALELLEHCGVCRERLRPEREPRLLPCLHSACSACLGPAAPAAANSSGDGGAAGDGTVVDCPVCKQQCFSKDIVE
B11: RNF11 RING domain (UniProt Q9Y3C5); chain RDGSEKKIRECVICMMDFVYGDPIRFLPCMHIYHLDCIDDWLMRSFTCPSCMEPVDAALLSS
Sequence	lacZ reporter activity
B1 (MDM2 RING domain)	0
B2 (NHLRC1 RING domain)	0
B3 (TRIM32 RING domain)	0
B4 (TRIM74 RING domain)	0
EDVLSKDAGECAICLEELQQGDTIARLPCLCIYHKGCIDEWFEVNRSCPEHPSD (ZNRF2 RING domain (UniProt Q8NHG8))	0
B5 (RNF32 RING domain)	0
GSEEEEIPFRCFICRQAFQNPVVTKCRHYFCESCALEHFRATPRCYICDQPTGGIFNPA (RNF113B RING domain (UniProt Q8IZP6))	0
B6 (TRIM34 RING domain)	0
B7 (ARIH1 RING domain)	0
B8 (RNF10 RING domain)	0
B9 (SHPRH RING domain)	0
B10 (TRIM28 RING domain)	0
B11 (RNF11 RING domain)	0

Series 2
Target: Interferon regulatory factor 5, full length, phosphomimetic (IRF5, Homo sapiens, UniProt Q13568-2, residues 1-514, K96S/S451D/S453D/S456D/S462D)
Method: protein-binding microarray
Molecule type: double-stranded DNA, one strand shown
Sample: in vitro
Concentration: 250 nM
Notes: 60-bp whole probe
Together with: salmon DNA 0.4 mg/ml
Reference: random background probes
Direction: higher = stronger binding
Shared flanks, not repeated: GCCTAGCAC … GTCTTGATTCGCTTGACGCTGCTG
Sequence	log fluorescence
GACGATCTCAGTTTCTAGACGTGCTAG	0.688 z-score
GGCGGACTGGGGTATCGGGACGTGCTA	-0.233 z-score
TTAGGACTGGACTAGCGGTTAGTGCTA	-0.293 z-score
TCACATCTAGTTCTGCTACTGTGCTAG	0.273 z-score
CACGGTCTCGGTATCGGGACGTGCTAG	0.947 z-score
GACGGTATCCTTCCCCTGACGTGCTAG	-0.00666 z-score
GGCGGACTGGGTCTCGGGACGTGCTAG	-0.762 z-score
CCAACACTCGGTTTCCAAATGTGCTAG	0.33 z-score
TCATGTTTCTCAACCATACTGTGCTAG	0.563 z-score
TTTACTTTCTATGTCTGTTTGTGCTAG	6.72 z-score
TCATGTCTGTTTTTGCTACTGTGCTAG	1.03 z-score
TTAGATTTCGGGACTGGATAAGTGCTA	2.68 z-score
TTAGGTTTCCTACTGCTTTAGTGCTAG	0.458 z-score
TTAGGTCTCGGGTTTCGGTTAGTGCTA	7.11 z-score
TTAGGTTTCCTACTGCTTTCGTGCTAG	1.57 z-score
TTAGATCCCAGTATCGATTAGTGCTAG	7.01 z-score
TTAGATCTCAGCTTCGATTAGTGCTAG	1.01 z-score
AGAGTCACCCATCTCAACAAGTGCTAG	-0.297 z-score
TTAGATTTCGGGACTGGATCAGTGCTA	2.69 z-score
CTCCAACAAGGCTATCCCTCGTGCTAG	-0.423 z-score
TTAGAACTGAGTTACGATTAGTGCTAG	0.23 z-score
GACGAACTGGGTTTCGGGACGTGCTAG	2.91 z-score
TTAGGTATCGACACTAGGTTAGTGCTA	2.65 z-score
CACGGTTTCGGGTTTCGGGACGTGCTA	7.46 z-score
CTAGGACTGGGTTTCGGTTAGTGCTAG	7.95 z-score

Series 3
Target: RNA binding protein fox-1 homolog 2, RRM domain, GST-SBP tag (RBFOX2, Homo sapiens, UniProt O43251-10, residues 100-194)
Method: RNA Bind-n-Seq
Molecule type: RNA
Sample: in vitro
Concentration: 365 nM
Notes: natural RNA segment, single round, ends assumed
Reference: no-protein control
Direction: higher = stronger binding
Shared flanks, not repeated: GGGAGUUCUACAGUCCGACGAUC … UGGAAUUCUCGGGUGCCAA
Residues (chain): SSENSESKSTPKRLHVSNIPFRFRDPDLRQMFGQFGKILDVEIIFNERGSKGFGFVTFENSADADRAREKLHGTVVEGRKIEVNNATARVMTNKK
Sequence	RBNS enrichment (R)
UGCCUCUCUGUGGCCGUGGGUUCACGUGGCCUCUGCGGUGAGUCUCCAAGUUUCUGCCUAGGCGCCUGUGCGUUUCCUUUCUGUGACGGGAUUAGCUUAGACAUCCUUGC	0.254
AAAACUAGAGAAUUAGCCAUAUUAAGGAUUUUUCUUGACUGCAAAUUACUUCUAAAGAAUCAUCAGUGUAUAGAUUAGAAGUGCUCAUUACCUGCAACUUUUAAAAAAAA	0.52
UCUACCAUAGCCAUGUGGUGCAAUGCAAACUGCUGUAAUUCAAGAGAGGAAAUUUCCUCACCUCCCAAUUCUGUGUAAUCAAGAAUACCUCCUUAAUUCUGAGAGCAUGA	2.27
CUUAGGAGAUGAAAGAAUAUUACCACAUGAGGAGGAGGGGCAGUUGCAACAGAACACUUUGGUCUUCCUACACCAAGUCUGUGAGGGCAUCCAAGACUGAAUGAAAGCGC	1.88
GGAAGCAGUGAGCAAAACCUGUGGUUAUUAACGGAAAAGUCUUUUAUUACAAAGUCAAUUAAAACUUUUCAUUCAAGGUUUUUGAGCCAAACUAGAAGUUGAGAUUGUAA	0.378
UUUAAGCAUUUUAUCAAUCAUUAAAAUUUACUGCCAGUUGUGAGUGGCUUUUUAAUUAACUUGUCUUUCAUUGCACUUCACUCUGCCUGUUUUCAAGGGGAGUAAGAUUG	1.71
CAAUCUCUUCAUAAUUUUGUUCUGUAAAAGAUGAACCUUUCCGAGUGAUGCAUUCAAACUGUCUAGCAAUAGAUCUUUUAAAACGAUGUAAAACCAUUCAGGGUAAUUUU	0.365
CUUAAACUCUGCAGCUUUCAAGCUCAUCUGUUAUGCAUAGCUUUGCACUUCAAAAAAGCUUAAUUAAGUACAACCAACCACCUUUCCAGCCAUAGAGAUUUUAAUUAGCC	0.884
GGGCCCAGCAGUGUUCCUCCAUCAGCAUGUUAGACAACUACACAGUAUGUUGUUAGUUUUGAAAGACAUUCACUCAAGGAAAACACCAUCUCAACUUUGCCCGCUCACCA	1.02
AUUAAAUCGUCACAGCCAAGUAAUAACCCAAGAAUGGUAUGAGUUUCAUGUGUAAUAGCUCAAAUGGAAUAAGCAUGAAUGCUGGAGUGGACCAUUAUCCUCAAAUAUUC	9.87
UGGUUGAUUAGAGAUUCUGAGAAGCAGUAGAGCUGGCUGGGAGGUGGGCUACAGAGGAGCAAGCAAGCACUUCAGACUGACCAAAGGUUGUGGUGGCCCACAUGGCUCUG	0.713
UAUAGUUAUGAAACUAUCAAUCAAGGUGUUAUAUUUCAGUCAGAAGUGAAAAUUUAUGAAGAGUAUUUGGAAGUGUGUACAGAAAUAAACUAGACUUACAGGUAGGCUAG	0.574

Series 4
Target: CCND3, cyclin fold, Cln2 fusion (human)
Method: yeast growth competition, sequencing
Sample: yeast
Notes: weak parent motif
Reference: not given
Direction: higher = stronger binding
Starting sequence: MICAL3 docking peptide (human); LQLRRQLSFSEDS; partner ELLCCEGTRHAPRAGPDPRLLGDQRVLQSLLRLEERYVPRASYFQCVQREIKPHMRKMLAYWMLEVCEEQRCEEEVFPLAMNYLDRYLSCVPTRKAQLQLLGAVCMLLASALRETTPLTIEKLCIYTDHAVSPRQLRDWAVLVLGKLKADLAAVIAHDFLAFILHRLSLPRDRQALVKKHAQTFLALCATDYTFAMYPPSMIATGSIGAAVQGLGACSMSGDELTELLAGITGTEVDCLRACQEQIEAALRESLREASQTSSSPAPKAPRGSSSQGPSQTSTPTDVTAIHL
Change	normalised enrichment score
LMLRRQLSFSEDS [Q2M]	0.041
LQLRRQLSFSCDS [E11C]	0.154
LQLRRQLSFDEDS [S10D]	-0.132
LQLWRQLSFSEDS [R4W]	0.547
LQLRSQLSFSEDS [R5S]	-0.0663
LQLRRQLEFSEDS [S8E]	-0.238
LQLRRQLSFLEDS [S10L]	0.343
LQLRRTLSFSEDS [Q6T]	-0.0449
LSLRRQLSFSEDS [Q2S]	0.299
LILRRQLSFSEDS [Q2I]	-0.183
LQLRRQLSFSEWS [D12W]	0.189
LQLRRMLSFSEDS [Q6M]	0.161
LQLRRRLSFSEDS [Q6R]	-0.0453
LQLRFQLSFSEDS [R5F]	-0.134
LQLRLQLSFSEDS [R5L]	0.144
LQLRRQLSFSEHS [D12H]	-0.226
LQTRRQLSFSEDS [L3T]	0.0551
LALRRQLSFSEDS [Q2A]	-0.387
LQHRRQLSFSEDS [L3H]	-0.106
LQLRRQLSPSEDS [F9P]	-0.122
LQLRGQLSFSEDS [R5G]	0.019
LQMRRQLSFSEDS [L3M]	-0.266
LQLRVQLSFSEDS [R5V]	-0.0283
LCLRRQLSFSEDS [Q2C]	0.318
LQLTRQLSFSEDS [R4T]	-0.528

Some of these lines once more (series 2):
Sequence	log fluorescence
TTAGGTCTCGGGTTTCGGTTAGTGCTA	7.11 z-score
TTAGGTTTCCTACTGCTTTAGTGCTAG	0.458 z-score
CCAACACTCGGTTTCCAAATGTGCTAG	0.33 z-score
TCATGTCTGTTTTTGCTACTGTGCTAG	1.03 z-score
CTCCAACAAGGCTATCCCTCGTGCTAG	-0.423 z-score
